# Experimental data pooled from the literature.
# ± marks the error that the study gave.
# Sequence of UniProt Q9NWZ3 (whole entry, looked up): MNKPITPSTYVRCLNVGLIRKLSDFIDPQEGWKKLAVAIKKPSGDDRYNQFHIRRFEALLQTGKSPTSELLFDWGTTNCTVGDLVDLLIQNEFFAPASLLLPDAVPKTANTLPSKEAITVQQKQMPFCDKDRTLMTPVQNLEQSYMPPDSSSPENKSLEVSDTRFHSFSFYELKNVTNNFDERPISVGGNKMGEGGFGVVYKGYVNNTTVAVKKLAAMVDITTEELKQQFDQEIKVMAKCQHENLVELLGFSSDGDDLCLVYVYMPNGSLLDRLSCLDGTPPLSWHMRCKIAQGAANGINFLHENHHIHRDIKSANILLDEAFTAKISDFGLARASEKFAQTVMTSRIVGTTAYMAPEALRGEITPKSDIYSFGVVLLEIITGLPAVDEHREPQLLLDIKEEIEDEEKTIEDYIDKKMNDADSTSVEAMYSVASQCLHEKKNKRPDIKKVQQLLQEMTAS
# Sequence of UniProt P43088 (whole entry, looked up): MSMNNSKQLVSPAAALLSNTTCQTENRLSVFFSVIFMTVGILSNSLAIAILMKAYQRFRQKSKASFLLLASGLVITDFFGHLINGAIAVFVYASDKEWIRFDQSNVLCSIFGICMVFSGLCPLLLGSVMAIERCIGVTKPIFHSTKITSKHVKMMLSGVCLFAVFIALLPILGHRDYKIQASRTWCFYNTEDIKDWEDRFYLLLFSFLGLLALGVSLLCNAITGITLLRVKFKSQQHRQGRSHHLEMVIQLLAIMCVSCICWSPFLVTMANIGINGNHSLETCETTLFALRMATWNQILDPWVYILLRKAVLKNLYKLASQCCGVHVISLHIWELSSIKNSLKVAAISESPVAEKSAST
# Sequence of UniProt Q9UL54 (whole entry, looked up): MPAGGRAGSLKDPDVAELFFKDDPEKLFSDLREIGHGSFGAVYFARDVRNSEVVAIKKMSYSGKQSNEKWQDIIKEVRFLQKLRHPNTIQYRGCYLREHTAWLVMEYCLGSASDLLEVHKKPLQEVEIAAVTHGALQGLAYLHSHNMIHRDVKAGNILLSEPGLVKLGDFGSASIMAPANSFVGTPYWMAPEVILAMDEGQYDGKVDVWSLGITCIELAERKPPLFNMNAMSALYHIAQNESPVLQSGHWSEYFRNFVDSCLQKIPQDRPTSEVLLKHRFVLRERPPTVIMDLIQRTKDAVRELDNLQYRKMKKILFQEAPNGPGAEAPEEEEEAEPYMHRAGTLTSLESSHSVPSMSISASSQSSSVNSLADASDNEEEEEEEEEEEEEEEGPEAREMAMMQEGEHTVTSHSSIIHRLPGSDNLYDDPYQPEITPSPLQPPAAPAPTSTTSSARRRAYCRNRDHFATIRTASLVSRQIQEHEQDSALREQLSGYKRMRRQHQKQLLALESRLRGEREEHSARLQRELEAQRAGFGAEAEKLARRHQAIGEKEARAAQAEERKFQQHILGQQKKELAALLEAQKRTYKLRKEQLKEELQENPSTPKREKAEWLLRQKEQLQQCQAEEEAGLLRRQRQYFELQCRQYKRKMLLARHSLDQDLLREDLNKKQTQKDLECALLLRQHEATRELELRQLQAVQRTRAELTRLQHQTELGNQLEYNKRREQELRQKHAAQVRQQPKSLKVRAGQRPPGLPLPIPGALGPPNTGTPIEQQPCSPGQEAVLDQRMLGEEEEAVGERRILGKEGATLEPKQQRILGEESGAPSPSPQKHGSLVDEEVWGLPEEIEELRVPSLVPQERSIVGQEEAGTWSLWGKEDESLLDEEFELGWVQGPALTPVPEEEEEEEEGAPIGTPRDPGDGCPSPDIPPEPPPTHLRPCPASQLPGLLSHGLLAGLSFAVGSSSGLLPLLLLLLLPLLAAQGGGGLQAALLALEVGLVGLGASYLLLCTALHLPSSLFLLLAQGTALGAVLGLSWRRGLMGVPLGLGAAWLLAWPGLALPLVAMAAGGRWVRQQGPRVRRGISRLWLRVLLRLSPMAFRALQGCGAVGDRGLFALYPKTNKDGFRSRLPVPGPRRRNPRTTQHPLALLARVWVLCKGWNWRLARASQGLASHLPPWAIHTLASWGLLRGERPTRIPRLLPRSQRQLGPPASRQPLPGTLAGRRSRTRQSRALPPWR
# Sequence of UniProt Q9NQR1 (whole entry, looked up): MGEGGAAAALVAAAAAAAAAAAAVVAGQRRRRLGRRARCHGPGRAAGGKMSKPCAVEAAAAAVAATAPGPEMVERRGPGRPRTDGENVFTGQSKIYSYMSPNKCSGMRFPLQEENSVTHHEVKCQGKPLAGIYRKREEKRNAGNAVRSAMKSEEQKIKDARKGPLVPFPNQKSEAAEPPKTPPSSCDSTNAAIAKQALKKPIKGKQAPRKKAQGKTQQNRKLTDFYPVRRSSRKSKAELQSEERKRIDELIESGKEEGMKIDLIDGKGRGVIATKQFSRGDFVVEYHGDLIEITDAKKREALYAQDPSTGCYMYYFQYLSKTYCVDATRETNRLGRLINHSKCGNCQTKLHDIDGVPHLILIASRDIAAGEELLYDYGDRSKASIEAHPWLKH
# Sequence of UniProt P35408 (whole entry, looked up): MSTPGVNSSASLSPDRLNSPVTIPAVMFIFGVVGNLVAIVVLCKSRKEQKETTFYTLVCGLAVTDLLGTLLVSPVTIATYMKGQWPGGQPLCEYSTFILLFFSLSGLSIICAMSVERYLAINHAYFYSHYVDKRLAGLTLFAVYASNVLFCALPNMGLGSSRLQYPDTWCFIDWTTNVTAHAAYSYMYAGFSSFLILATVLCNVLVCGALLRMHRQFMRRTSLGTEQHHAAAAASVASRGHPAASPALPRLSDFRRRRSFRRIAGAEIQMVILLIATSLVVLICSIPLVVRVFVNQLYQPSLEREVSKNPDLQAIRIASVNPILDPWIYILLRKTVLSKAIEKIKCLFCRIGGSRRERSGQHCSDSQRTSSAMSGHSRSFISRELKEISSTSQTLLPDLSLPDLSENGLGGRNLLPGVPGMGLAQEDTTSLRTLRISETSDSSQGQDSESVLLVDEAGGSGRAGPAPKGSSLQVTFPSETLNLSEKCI
# Sequence of UniProt P08473 (whole entry, looked up): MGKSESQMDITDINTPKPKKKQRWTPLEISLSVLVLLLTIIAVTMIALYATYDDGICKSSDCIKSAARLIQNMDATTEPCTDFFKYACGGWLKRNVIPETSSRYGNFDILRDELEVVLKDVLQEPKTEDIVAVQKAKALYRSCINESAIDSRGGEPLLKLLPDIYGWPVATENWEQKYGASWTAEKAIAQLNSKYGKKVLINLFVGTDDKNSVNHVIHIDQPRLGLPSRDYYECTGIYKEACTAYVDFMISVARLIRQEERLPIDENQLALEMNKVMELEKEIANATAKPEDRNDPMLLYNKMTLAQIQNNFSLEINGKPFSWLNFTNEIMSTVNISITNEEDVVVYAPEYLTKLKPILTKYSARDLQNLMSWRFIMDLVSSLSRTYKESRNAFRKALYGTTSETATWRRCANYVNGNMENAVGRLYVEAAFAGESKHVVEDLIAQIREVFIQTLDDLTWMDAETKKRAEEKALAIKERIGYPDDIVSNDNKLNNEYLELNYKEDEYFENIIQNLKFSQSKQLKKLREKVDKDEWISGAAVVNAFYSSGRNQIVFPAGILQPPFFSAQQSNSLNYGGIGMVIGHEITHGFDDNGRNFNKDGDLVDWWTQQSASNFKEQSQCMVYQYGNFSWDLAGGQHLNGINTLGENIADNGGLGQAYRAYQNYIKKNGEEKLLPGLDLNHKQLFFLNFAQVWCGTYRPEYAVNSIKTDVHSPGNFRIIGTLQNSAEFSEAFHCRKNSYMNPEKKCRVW
# Sequence of UniProt Q9NZJ5 (whole entry, looked up): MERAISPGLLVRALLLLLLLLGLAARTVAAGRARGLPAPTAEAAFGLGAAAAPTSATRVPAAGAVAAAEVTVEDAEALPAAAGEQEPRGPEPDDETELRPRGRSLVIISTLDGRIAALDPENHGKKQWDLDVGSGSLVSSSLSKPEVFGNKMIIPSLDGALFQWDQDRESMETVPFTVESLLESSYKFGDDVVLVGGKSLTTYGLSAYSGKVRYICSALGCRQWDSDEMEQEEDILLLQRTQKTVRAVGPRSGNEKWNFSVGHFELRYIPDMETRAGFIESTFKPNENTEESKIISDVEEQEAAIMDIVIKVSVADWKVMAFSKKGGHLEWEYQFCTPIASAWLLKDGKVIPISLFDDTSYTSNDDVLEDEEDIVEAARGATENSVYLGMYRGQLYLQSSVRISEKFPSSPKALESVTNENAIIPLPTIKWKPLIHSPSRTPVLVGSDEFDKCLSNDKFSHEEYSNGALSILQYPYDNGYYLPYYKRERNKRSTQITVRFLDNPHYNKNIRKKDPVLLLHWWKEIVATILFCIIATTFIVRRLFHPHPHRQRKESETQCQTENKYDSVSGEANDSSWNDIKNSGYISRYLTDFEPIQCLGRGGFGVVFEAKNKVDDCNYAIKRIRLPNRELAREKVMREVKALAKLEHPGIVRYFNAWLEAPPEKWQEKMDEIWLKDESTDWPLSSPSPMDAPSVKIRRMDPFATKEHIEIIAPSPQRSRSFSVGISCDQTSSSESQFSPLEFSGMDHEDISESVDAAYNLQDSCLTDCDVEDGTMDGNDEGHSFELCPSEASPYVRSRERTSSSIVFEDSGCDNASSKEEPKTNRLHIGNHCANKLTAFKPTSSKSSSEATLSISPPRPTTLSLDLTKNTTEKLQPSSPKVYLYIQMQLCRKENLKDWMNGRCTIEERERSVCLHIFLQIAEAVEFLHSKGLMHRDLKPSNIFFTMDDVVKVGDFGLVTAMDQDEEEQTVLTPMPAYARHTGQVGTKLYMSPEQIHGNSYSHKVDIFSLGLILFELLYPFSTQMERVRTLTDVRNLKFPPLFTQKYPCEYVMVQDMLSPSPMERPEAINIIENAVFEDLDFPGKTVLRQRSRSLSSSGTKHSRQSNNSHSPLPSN
Compound,target or system,test,system,conditions,endpoint,value
N[C@H](C(=O)N1CCCC1)C1CCN(c2nccc3c(-c4ncc(Cl)cc4Cl)cccc23)CC1,"TAOK2 (Homo sapiens, UniProt Q9UL54)","kinase activity, inhibitor",,"10 µM, with: ATP 1 mM",inhibition,0.8%
C=CC(=O)Nc1cc(-c2nn(C3CCC(N4CCN(C(C)=O)CC4)CC3)c3ncnc(N)c23)ccc1Oc1ccccc1 (stereo not drawn),"MAP3K5 (Homo sapiens, UniProt Q99683)","inhibitor, KiNativ profiling",biochemical,2 µM,inhibition,5.1%
CCOC(=O)[C@](CC)(CCCSCCOCCOCCNC(=O)c1ccc(-c2c3ccc(=N)c(S(=O)(=O)O)c-3oc3c(S(=O)(=O)O)c(N)ccc23)c(C(=O)O)c1)NC(=O)c1ccc(C2CC2)c(Cc2ccc(F)cc2)n1,"PTGFR (Homo sapiens, UniProt P43088)","ligand displacement, radioligand",,10 µM,inhibition,14%
CC(C)[C@H]1NC(=O)C[C@H]2/C=C/CCSSC[C@@H](NC1=O)C(=O)N[C@H](Cc1cccc3ccccc13)C(=O)NCC(=O)O2,"TNK2 (Homo sapiens, UniProt Q07912)","enzyme activity, inhibitor",,10 µM,inhibition,-1.1%
O=C(CN1CN(c2ccccc2)C2(CCN(C(=O)c3cnc4[nH]ncc4c3)CC2)C1=O)NCC(F)(F)F,"IRAK4 (Homo sapiens, UniProt Q9NWZ3)",inhibitor,,concentration not given,inhibition,< 50%
CCN(CC)CCOc1ccc(-c2nnn(Cc3ccc(OC)cc3)c2N)cc1,"SCN5A (Homo sapiens, UniProt Q14524)",ion channel,HEK293,"10 µM, with: 10000 nM",inhibition,14.8%
CN(C)c1ncnc2c1ncn2[C@@H]1O[C@H](CO)[C@@H](NC(=O)[C@@H](N)CSC(c2ccccc2)c2ccccc2)[C@H]1O,"Neprilysin (MME, Homo sapiens, UniProt P08473)",enzyme activity,,concentration not given,inhibition,inactive
C[C@H](NCc1ccc(-c2ccc(C(F)(F)F)cc2)cc1)C(N)=O,"L-type calcium channel benzothiazepine site, rat","binding, radioligand binding",biochemical,"1 µM, with: [3H]diltiazem 2.0 nM",inhibition,-8%
CS(C)(=O)=Nc1ccc(-c2ccc(-c3nc4cc(O[C@@H]5CO[C@H]6[C@@H]5OC[C@H]6O)[nH]c4cc3F)cc2)cc1,"EIF2AK3 (Homo sapiens, UniProt Q9NZJ5)","enzyme activity, inhibitor",,10 µM,inhibition,9%
N#Cc1ccc(N2N=C3c4ccc(C(=O)O)cc4CCC3C2C2CCCC2)cc1Cl (stereo not drawn),"KMT5A (Homo sapiens, UniProt Q9NQR1)","enzyme activity, inhibitor",,10 µM,inhibition,9%
O=C(O)c1ccccc1/C=N/Nc1nc(-c2ccccc2Cl)cs1,"EPHA8 (Homo sapiens, UniProt P29322)","enzyme activity, inhibitor",,1 µM,inhibition,-4.43%
COc1ccc(F)cc1S(=O)(=O)Nc1cnc2c(c1)C(=O)NCCO2,androgen receptor,radioligand binding,,"10 µM, with: testosterone",inhibition,-12%
O=C1NC2(CC2)COc2ncc(F)cc2[C@H]2COCCN2c2ccn3ncc1c3n2,,,"Sprague-Dawley rat, male, heart","oral, 2.5 mg/kg/day, 4 weeks, end of treatment",organ-to-body weight ratio,0.361 ± 0.028%
CN[C@@H]1[C@H](O)[C@H](NC)[C@H]2O[C@]3(O)[C@H](O[C@@H]2[C@H]1O)O[C@H](C)C[C@H]3NC(=O)Cc1cc(Cl)ccn1,"PTGER4 (Homo sapiens, UniProt P35408)","ligand displacement, radioligand",,10 µM,inhibition,-6%
CN(C)[C@H]1C[C@@]23CC[C@@]4(O2)C(=CC[C@]2(C)[C@@H](c5ccc6ccncc6c5)CC[C@H]24)C=C3[C@@H](O)[C@@H]1O,"CDK20 (Homo sapiens, UniProt Q8IZL9)","ATP probe labelling, inhibitor, KiNativ profiling",,0.1 µM,inhibition,2.7%

# Some of these lines once more:
Compound,target or system,test,system,conditions,endpoint,value
N#Cc1ccc(N2N=C3c4ccc(C(=O)O)cc4CCC3C2C2CCCC2)cc1Cl (stereo not drawn),"KMT5A (Homo sapiens, UniProt Q9NQR1)","enzyme activity, inhibitor",,10 µM,inhibition,9%
O=C(CN1CN(c2ccccc2)C2(CCN(C(=O)c3cnc4[nH]ncc4c3)CC2)C1=O)NCC(F)(F)F,"IRAK4 (Homo sapiens, UniProt Q9NWZ3)",inhibitor,,concentration not given,inhibition,< 50%
